Results of several laboratories.
Numbered parts are unrelated; each lists some results of a single study.

Block 1 — method: RNA Bind-n-Seq; molecule type: RNA; matrix: in vitro; tested at: 365 nM; relative to: no-protein control; reading: higher = stronger binding
Target: RNA binding protein fox-1 homolog 2, RRM domain, GST-SBP tag (RBFOX2, Homo sapiens, UniProt O43251-10, residues 100-194)
Notes: natural RNA segment, single round, ends assumed
Constant ends, left off below: GGGAGUUCUACAGUCCGACGAUC … UGGAAUUCUCGGGUGCCAA
Residues (chain): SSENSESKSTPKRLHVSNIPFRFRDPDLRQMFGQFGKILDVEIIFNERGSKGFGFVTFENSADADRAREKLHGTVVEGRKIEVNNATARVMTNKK
Oligonucleotide	RBNS enrichment (R)
GUUUUAAAUGUAUGUAUUAUAAAUAUCUGUAACCAAAUCAUUUGAAGGCUUGAUAAAUUUUUAACAAAGUUUGUACAUUUUUUAUGAAAGUUACUAGUAAUGCUUUACUA	0.772
CAAGGCCUACUGACCAAAUUGUUGUGUCGAGAUAUUUAACUUUUGCCAAAUAAAAUAUAUUGAUUCUUUACGUUGUGCGGCUCUGCUCUUUGCACCUUCUUUUUCUAGGU	0.64
GUACAUUCACUAAAUUUAUCAAAUAAAUUUAAAACUAGAUUGUUCCUAAGUCCAAUUGUUGAAAUUGGAUCAAAGUAGAAUUGUCAGAGGAACACAACAUUAAGCCAUUA	0.367
UGCAUGCUUCCCGAUGGCCCACGGCAGGAGGUGUGUGGAAGUGUAAGGCCUAAGAUGCUCACAGAGGUCCCUCAUGACCUCCCUUCCCCAACUCCCGAAUCCUCUCUUGA	0.28
ACAUUAAACUUUUUUAAAGUAAAGGAGAUGGUAGAUACCGUUAGAUUAUAGUCUUGAGGUUCAUGUGAAGCCAGUGGUGUUAACUUACUUUGAUUUCCUUGUUCAGGUCA	0.284
GCAAUGAGGAAGGAAAGGUUUCAAAUUUAGGGGCAGAAGUGAGAGAAUGAGCCAACCCAUGUACCUGCUGCAACUGAACCAGACUGGGUUUUCAAGGCUCCCAGACGUAG	1.5
GAUUCUGUUGCAUAGACUAGUCCUAUGGAAAAAACCAAGCUUCGUUAGAAUGUCUGCCUUACUGGUUUCCCCAGGGAAGGAAAAAUACACUUCCACCCUUUUUUCUAAGU	0.287
CAAGGUGAUGUUAAGGGCAUAGAAGGGGCAUAUUUGUCUUCAGUUGAAUGCCAUUGUGUGCCAGUUGCUCCCCUACCUCUGAUGACAUCUCUGUUCUCCCUGGGAAAGGU	0.357
UUGGGAUUCUUGAUGAAAUCCCCUGCCCCGCGUGCGUGUCAGUGCAGAUCCUGCGCACCACGCCCCCUCCCCCAAGUGCCCUCUGCCGAGCCCGUCCUGGUAUUGACUUU	0.325
ACUUAAUGUGUUCCUGAAGAGGUUGUGCUUCCUGACAAAUGCUGUCAGGUCAUUAUUUGCUGUAUCAAAGUUCCAGUGGCUUCAGAAAUCAUAGCAUCCCAUGGUUUUGU	0.417
UUUCAGAAAACAGGUCUCUCCUUUUGUAAAUCUGGAAUGAUGUAAGAAAAUGCUUUUGGUUACUGAUACAUUUUUCCCUAAUUGACCUUUUCUAUUACUAAAUCUGAAAU	0.47
GAGAAAGUUUGGGGCAUGAUAUAUGUCCAUUUCUCUACGAAAUAUUUGUUAUGGAGCUGUGCUAAUUUCACUAUCAAAAUAUUUGUUGGAUGAAUAAAUGCUACGAAACG	0.971

Block 2 — method: RNA Bind-n-Seq; molecule type: RNA; matrix: in vitro; tested at: not given; relative to: input RNA pool; reading: higher = stronger binding
Target: RING finger protein unkempt homolog, zinc fingers 1-6, GST-SBP tag (UNK, Homo sapiens, UniProt Q9C0B0, residues 30-357)
Notes: RNA with constant flanks, human-mouse chimeric sites, ends assumed
Constant ends, left off below: GGGAGUUCUACAGUCCGACGAUC … CAACAGAGGAUUGAGCAUCA
Residues (chain): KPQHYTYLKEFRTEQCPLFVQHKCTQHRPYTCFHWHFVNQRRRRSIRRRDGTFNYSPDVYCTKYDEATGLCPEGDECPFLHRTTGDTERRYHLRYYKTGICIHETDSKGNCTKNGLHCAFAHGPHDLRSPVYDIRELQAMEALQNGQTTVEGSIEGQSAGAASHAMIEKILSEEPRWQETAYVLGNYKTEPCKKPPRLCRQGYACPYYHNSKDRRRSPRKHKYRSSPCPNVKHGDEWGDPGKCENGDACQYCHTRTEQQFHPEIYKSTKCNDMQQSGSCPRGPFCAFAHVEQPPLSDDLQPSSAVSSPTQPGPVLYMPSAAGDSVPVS
Oligonucleotide	bound/input enrichment
UUUCUACUGCAGCAAACGAUGCUAAGAAUUAAGGAUCCUAAGAAGUCCCUGGAUUUUUAUACGAGGGUUCUUGGACUGACGCUAAUCCAAAAAUGUGACUUCCCUGCUAUGAAGUUCUCG	0.141 ratio
GAUCCACAGUGGUCUGAGGAGCAACUCAUUGCUGCAAAAUUUUGCUUUGCUGGACUUGUUAUAGGGCAGACUGAAGUGGACAUCAUGAGUCAUGCCACACAAGCUAUUUUUGAAAUUCUG	0.273 ratio
UAUCCAACUUUCUUGCCACAUUUUGAAUUCCAAGACAUUAUCCCUCCAGAUGACUUCCUAACGAGUGAUGAAGAGCAAGAUUUGGUUUUAUUUGGAACUAUGAGAGGACAAGUUGUUGGA	0.124 ratio
UUUCUACUGCAGCAAACCAUGCUACGAAUUAAGGAUCCUAAGAAGUCCCUGGAUUUUUAUACGAGGGUUCUUGGAAUGACCCUCCUGCAGAAGCUUGACUUCCCUGCUAUGAAGUUCUCG	0.0857 ratio
GUUGCCAGGUUCCGGUGCCGUUGGGCUCGGUUCUCUCCUGAGCUACGUGUCUCUACGCUCUCAAUCCGCCAUCCAACGGCAGUCAUGCAGGUAAUGCAGUUUGUGGAGCCCAGCCGGCAG	0.072 ratio
GGGGAGAAACCUUACGAGUGUGUGCAGUGUGGGAAAUCCUACAGUCAGAGCUCAAACCUUUUUAGACAUCAGAGACGACACAAUGCAGAAAAACUUUUGAAUGUUGUGAAGGUUUAAGAA	0.238 ratio
UUCAAAGAAAAGGGCAGCUGUGUCAUUUCAUAAGUAACUCUGGGGGAUAAGUGGAAGAACUAGUUUGUUAAUUUUCCCCCAAAUGAAGCCAAAGUGUGUGUUGAAGAACUGAGAAAAAAU	0.505 ratio
ACUCAGAGAUCCACCUCAAUUGAAGUGGGGAGUAAAGUCUGAUAUUACACACCUAACUUGAUGGAUAUAUAUUUUUUUUAAUAUGAAUCUUCCUGUUCGUCCAGGGAAGAAAGAUUUGUU	0.609 ratio
AAUAGAGGAUCCACCUCCCAAAGUGCUGGGAGUAAAGUCUGAUAUUACACACCUAACUUGAUGGAUAUAUAUUUUUUUUAAUAUGAAUCUUCCUGUUCGUCCAGGGAAGAAAGAUUUGUU	1.09 ratio
AGAUAUUAAGUAUUUUGAAAAAACUCGAACAGAUUUGACAAGGGUAGCCAGCUUGGAGUCUAGCAACUUGCCAAUGUGUUUACCAAUUUUGGGGGCUGUUUUUCUUUUCUUCUUUCAAAU	0.391 ratio
GGCCUGGGACCGUCCUGGGCUAGUACAAAUAGCGGCAGUGGAGGCUCGAGAGGAAAGUUGUUAGUGGAGGCAGUGGUUAGAGGCCGUCAUGUACGGUCCUUUACUCGAUAGAUGUGUUCU	0.584 ratio

Block 3 — method: protein-binding microarray; molecule type: double-stranded DNA, one strand shown; matrix: in vitro; tested at: not given; reading: higher = stronger binding
Target: Protein max, full length (MAX, Homo sapiens, UniProt P61244-2, residues 1-151)
Notes: k-mer, scored over probes, only values ≥0.25
Oligonucleotide	E-score
ACGCGTTA	0.295
AGGAGCAC	0.271
CTCATGTA	0.291
CATGTAAA	0.263
AGCACGCA	0.391
CACACCTG	0.328
AGATCACG	0.323
CCACGTCG	0.284
CGTAGCAC	0.267
TAGCATGA	0.325
AGCACACA	0.278
CTCGTGAC	0.448
CCGCCCAC	0.28
CACGAGGA	0.471
CGTGGCAA	0.339
CGGCATGC	0.407
ACACGCGA	0.411
ACCCACGT	0.439
CGTGATGC	0.342
CGTCATGC	0.318
AACCATGC	0.435
ACACGAGA	0.348
CGTACACG	0.397

Block 4 — method: RNA Bind-n-Seq; molecule type: RNA; matrix: in vitro; tested at: 200 nM; notes: whole 134-nt RNA, ends assumed; with: 150 mM LiCl; relative to: input library; reading: higher = stronger binding; all molecules: 7-deaza-guanosine replaces G
Target: Ras GTPase-activating protein-binding protein 1, full length (G3BP1, Homo sapiens, UniProt Q13283)
Sequence of UniProt Q13283 (whole entry, looked up): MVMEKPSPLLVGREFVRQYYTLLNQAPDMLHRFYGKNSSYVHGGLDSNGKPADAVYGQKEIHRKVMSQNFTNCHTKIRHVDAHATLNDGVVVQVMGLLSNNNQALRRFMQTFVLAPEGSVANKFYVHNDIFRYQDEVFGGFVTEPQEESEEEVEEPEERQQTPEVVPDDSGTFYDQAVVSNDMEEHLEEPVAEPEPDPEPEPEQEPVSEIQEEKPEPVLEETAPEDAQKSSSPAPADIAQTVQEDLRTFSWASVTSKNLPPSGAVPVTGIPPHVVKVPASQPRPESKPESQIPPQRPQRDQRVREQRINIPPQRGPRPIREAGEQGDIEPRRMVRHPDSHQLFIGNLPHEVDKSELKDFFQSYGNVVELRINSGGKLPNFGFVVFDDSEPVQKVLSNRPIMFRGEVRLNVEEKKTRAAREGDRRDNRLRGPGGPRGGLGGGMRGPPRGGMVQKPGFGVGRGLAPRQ
Constant ends, left off below: GGGAGUUCUACAGUCCGACGAUC … UGGAAUUCUCGGGUGUCAAGG
Oligonucleotide	log2 enrichment
UGUGGAUGCCCUGCUGAAGAAGUCUGAGGCCCAGCAUGAACAGCCGGAAGAUGGAUGCCCCUUUGGUGCCCUGACGCAGCGCCUCCUGCA	-0.92
CCUGUGCUACACAUCGUAUGUACCGAAUCGGGGAAAAAAAGGGGAAAGGGGUUUUUGGGGAAAGUAUUAUGUUACGCCGUUCGGAUCUGC	0.854
AAGUCCUGUGCUACACAUCGUAUGUACCGAAUCGGGCCCCGGGGCCCCGGCCCCGGGAAAGUAUUAUGUUACGCCGUUCGGAUCUGCACU	-1.49
UAACUUUAGAGGAGGAUCUGAUGGAUAUGGCAGUGGACGUGGAUUUGGGGAUGGCUAUGAUGGGUAUGGAGGAGGACCUGGAGGUGGCAA	-0.0653
CAAGUCCUGUGCUACACAUCGUAUGUACCGAAUCGGGUUUGGGUUUGGGGUUUGGGAAAGUAUUAUGUUACGCCGUUCGGAUCUGCACUU	-1.03
ACCAUGCAGGUGGGCAUCUUUGGGAAGUGGGGCAAGGAAAGGAUAGGGAGGGGGGUAACACUUUGGGAACAGGUGGUCCCAGGUCGUUUC	0.277
GUCCUGUGCUACACAUCGUAUGUACCGAAUCAAACCCCCAAAUUUUUUUAAAUUUAAAAAAGUAUUAUGUUACGCCGUUCGGAUCUGCAC	0.504
GUCCUGUGCUACACAUCGUAUGUACCGAAUCGGGUUUUUGGUUUUUGGGGUUUUUGGGAAAGUAUUAUGUUACGCCGUUCGGAUCUGCAC	-0.26
CUCAAGUCCUGUGCUACACAUCGUAUGUACCGAAUCGGGCGGGGCGGGGCGGGAAAGUAUUAUGUUACGCCGUUCGGAUCUGCACUUCCA	0.113
AGUCCUGUGCUACACAUCGUAUGUACCGAAUCGGGGUUUGGGGAAAAAGGGGUGGGGAAAGUAUUAUGUUACGCCGUUCGGAUCUGCACU	-0.431
GUCCUGUGCUACACAUCGUAUGUACCGAAUCGGGCCCCCCGGCCCCCCGGCCCCCCGGGAAAGUAUUAUGUUACGCCGUUCGGAUCUGCA	-0.56

For quick reference, copied from above (block 1):
Oligonucleotide	RBNS enrichment (R)
CAAGGCCUACUGACCAAAUUGUUGUGUCGAGAUAUUUAACUUUUGCCAAAUAAAAUAUAUUGAUUCUUUACGUUGUGCGGCUCUGCUCUUUGCACCUUCUUUUUCUAGGU	0.64
GUACAUUCACUAAAUUUAUCAAAUAAAUUUAAAACUAGAUUGUUCCUAAGUCCAAUUGUUGAAAUUGGAUCAAAGUAGAAUUGUCAGAGGAACACAACAUUAAGCCAUUA	0.367
UGCAUGCUUCCCGAUGGCCCACGGCAGGAGGUGUGUGGAAGUGUAAGGCCUAAGAUGCUCACAGAGGUCCCUCAUGACCUCCCUUCCCCAACUCCCGAAUCCUCUCUUGA	0.28
ACAUUAAACUUUUUUAAAGUAAAGGAGAUGGUAGAUACCGUUAGAUUAUAGUCUUGAGGUUCAUGUGAAGCCAGUGGUGUUAACUUACUUUGAUUUCCUUGUUCAGGUCA	0.284
